Earlier results, collected from citations in different studies.
Each line is one published result; not all experiments were run side by side. Non-standard residues stand in square brackets, D forms with d. No end group written: not given here. [ ]: non-standard residue; d: D form.
B1: CCL1; sequence looked up; chain KSMQVPFSRCCFSFAEQEIPLRAILCYRNTSSICSNEGLIFKLKRGKEACALDTVGWVQRHRKMLRHCPSKRK
Sequence of UniProt P45481 (whole entry, looked up): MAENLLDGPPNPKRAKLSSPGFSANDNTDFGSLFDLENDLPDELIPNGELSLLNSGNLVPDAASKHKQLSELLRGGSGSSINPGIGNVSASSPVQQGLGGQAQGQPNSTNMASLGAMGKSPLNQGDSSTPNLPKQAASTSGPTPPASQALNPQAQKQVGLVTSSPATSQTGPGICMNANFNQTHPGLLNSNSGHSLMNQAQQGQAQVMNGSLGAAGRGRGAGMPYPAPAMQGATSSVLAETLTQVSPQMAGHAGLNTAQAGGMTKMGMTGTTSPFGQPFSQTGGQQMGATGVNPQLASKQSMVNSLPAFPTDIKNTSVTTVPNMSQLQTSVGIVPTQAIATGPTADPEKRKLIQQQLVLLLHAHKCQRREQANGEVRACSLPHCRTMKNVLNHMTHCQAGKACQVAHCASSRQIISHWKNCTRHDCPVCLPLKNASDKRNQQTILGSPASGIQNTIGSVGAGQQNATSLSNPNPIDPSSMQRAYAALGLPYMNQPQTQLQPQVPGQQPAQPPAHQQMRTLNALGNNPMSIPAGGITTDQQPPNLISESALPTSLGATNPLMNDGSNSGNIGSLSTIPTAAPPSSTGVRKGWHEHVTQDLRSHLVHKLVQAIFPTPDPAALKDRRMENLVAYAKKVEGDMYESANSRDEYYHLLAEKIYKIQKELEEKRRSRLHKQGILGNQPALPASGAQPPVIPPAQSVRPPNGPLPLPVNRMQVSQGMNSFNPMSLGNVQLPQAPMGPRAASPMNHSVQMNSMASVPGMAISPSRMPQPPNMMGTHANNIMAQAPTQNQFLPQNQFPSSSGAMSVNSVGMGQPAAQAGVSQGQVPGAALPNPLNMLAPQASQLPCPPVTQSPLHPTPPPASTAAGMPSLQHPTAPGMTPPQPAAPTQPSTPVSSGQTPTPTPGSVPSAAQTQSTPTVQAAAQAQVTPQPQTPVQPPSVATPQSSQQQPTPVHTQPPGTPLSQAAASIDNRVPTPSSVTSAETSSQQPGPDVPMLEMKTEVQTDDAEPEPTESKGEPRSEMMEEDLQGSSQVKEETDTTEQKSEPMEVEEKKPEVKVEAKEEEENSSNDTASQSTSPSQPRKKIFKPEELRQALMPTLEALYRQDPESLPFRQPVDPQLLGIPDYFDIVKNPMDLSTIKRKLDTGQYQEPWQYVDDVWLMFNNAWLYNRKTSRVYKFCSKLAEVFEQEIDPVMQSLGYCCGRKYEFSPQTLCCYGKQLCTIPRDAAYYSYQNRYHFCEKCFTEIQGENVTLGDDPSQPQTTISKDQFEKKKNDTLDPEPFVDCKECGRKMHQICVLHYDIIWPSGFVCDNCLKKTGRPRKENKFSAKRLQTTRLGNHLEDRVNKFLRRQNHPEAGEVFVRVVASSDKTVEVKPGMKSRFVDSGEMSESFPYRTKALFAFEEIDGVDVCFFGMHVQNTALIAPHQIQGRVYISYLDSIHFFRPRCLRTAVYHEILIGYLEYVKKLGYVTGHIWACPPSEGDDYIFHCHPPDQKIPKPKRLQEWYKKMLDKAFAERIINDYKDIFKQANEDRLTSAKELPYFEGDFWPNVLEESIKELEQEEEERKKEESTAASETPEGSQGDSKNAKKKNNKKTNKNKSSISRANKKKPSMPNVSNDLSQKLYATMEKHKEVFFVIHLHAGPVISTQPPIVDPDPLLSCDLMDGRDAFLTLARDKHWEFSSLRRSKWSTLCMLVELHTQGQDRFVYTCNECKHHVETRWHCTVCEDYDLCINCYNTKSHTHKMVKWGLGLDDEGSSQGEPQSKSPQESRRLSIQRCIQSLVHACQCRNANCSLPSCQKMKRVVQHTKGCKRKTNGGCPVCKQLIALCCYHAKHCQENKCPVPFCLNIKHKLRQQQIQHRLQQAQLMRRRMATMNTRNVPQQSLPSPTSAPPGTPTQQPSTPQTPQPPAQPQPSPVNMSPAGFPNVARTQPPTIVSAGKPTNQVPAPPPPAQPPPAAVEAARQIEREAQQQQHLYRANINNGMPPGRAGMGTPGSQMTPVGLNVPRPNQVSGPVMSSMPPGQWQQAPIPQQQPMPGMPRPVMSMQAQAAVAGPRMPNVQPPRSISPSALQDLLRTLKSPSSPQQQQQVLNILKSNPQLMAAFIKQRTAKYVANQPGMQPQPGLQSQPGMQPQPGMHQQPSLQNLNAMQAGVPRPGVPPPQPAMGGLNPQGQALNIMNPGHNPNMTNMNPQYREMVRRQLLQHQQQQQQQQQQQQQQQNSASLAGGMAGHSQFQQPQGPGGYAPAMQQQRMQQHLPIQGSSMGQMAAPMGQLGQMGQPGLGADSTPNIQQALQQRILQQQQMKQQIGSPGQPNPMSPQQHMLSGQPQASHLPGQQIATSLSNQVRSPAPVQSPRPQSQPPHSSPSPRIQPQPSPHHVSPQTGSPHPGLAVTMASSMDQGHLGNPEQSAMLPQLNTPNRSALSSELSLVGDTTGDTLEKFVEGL

| Molecule | target or system | assay | test system | setting | quantity | value |
| --- | --- | --- | --- | --- | --- | --- |
| indirubin-3'-monoxime | HUVEC | tube formation | – | – | IC50 | 6.5 µM |
| R[dW][dF]I[dF]H-NH2 (Arg-D-Trp-D-Phe-Ile-D-Phe-His-NH2) | Candida albicans | – | – | – | IC50 | 6.8 µM |
| teicoplanin | – | – | human patients | – | half-life | 48.1 h |
| capreomycin | Mycolicibacterium smegmatis | – | mc2155 | literature value | MIC | 0.25 µg/mL |
| HIF1A activation domain (Homo sapiens, UniProt Q16665) | CREBBP TAZ1 domain (UniProt P45481) | not stated | – | – | Kd | 0.01 µM |
| nosiheptide | Staphylococcus aureus | – | MRSA, various strains | range | MIC | 0.03 to 0.125 µg/mL |
| colistin sulfate | Staphylococcus aureus | – | – | – | MIC | 1 µg/mL |
| sodium rutin sulfate | herpes simplex virus | viral replication | – | – | IC50 | 88.3 µM |
| pegcetacoplan | – | – | healthy human volunteers | subcutaneous, after first daily dose, all dose groups | median Tmax | 24 h |
| colistin | Escherichia coli | – | – | – | MIC | 0.2 µg/mL |
| ifinatamab deruxtecan | – | – | patients with advanced solid tumours | dose not given, ESCC cohort | objective response rate | 23% |
| KQKTLKKVWKLSEKVLIFASAFAKKAGAAEATLVL | Bacillus subtilis | – | peptide, ATCC 23857 | – | MIC | 45 µM |
| H-[Orn][Orn]WW-NH2 (ornithine, C-amide; Orn = NCCC[C@H](N)C(=O)O) | Zygosaccharomyces bailii | – | – | – | growth inhibitory concentration | 12.5 µM |
| MWIWKKPRWKGRRLKKKEEKEELGDYIYLYCKVKVRLFGFLPYFISKTA | Bacillus subtilis | – | peptide | – | MIC | 6.3 µM |
| B1 (CCL1) | CCR8 W194A mutant | IP accumulation, agonist | – | – | EC50 | 0.128 µM |
| RGTCYNRVGLIIRNFSKLKGKKV | Staphylococcus aureus | – | peptide, ATCC 6538 | – | MIC | 17 µM |
| Nisin | Acanthamoeba castellanii | – | trophozoites | 24 h | IC50 | 4500 µg/mL |
| heparin | Plasmodium falciparum | erythrocyte invasion | merozoites | – | IC50 | 11 µg/mL |

A few entries again:
| Molecule | target or system | assay | test system | setting | quantity | value |
| --- | --- | --- | --- | --- | --- | --- |
| KQKTLKKVWKLSEKVLIFASAFAKKAGAAEATLVL | Bacillus subtilis | – | peptide, ATCC 23857 | – | MIC | 45 µM |
